Results collected from several papers.
Each line is one published result; not all experiments were run side by side. ± marks the error that the study gave.
OR5K1 A2T/I280V/T15M/V39I/Y193C: OR5K1 (Homo sapiens, UniProt Q8NHB7, A2T/I280V/T15M/V39I/Y193C)
Chain of UniProt Q8NHB7 (whole entry, unmodified, looked up): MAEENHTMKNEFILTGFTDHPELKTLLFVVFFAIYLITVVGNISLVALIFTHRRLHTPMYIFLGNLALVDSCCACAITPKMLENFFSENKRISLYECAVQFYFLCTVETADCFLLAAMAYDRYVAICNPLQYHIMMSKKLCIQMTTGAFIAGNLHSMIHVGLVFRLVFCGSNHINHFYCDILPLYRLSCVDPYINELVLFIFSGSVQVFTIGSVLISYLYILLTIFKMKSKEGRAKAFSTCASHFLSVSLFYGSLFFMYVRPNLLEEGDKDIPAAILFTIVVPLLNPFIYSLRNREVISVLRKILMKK
ADRA1A: Alpha-1A adrenergic receptor (ADRA1A, Homo sapiens, UniProt P35348)
Chain of UniProt P35348 (whole entry, looked up): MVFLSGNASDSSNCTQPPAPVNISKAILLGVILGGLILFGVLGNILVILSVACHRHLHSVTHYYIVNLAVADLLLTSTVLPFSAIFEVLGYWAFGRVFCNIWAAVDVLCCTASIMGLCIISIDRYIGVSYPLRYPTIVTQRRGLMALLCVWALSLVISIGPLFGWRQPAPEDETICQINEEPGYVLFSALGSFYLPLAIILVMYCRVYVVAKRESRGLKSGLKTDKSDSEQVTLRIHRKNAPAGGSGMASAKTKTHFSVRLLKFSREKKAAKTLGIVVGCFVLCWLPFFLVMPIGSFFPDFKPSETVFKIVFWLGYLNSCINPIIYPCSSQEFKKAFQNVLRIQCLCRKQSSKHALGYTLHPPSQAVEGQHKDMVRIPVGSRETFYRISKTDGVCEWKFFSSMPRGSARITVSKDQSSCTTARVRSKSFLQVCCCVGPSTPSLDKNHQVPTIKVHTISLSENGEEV
Tumor necrosis factor receptor superfamily member 9/Nectin-4: Tumor necrosis factor receptor superfamily member 9/Nectin-4 (Homo sapiens, UniProt Q07011+Q96NY8)
Chain of UniProt Q96NY8 (whole entry, looked up): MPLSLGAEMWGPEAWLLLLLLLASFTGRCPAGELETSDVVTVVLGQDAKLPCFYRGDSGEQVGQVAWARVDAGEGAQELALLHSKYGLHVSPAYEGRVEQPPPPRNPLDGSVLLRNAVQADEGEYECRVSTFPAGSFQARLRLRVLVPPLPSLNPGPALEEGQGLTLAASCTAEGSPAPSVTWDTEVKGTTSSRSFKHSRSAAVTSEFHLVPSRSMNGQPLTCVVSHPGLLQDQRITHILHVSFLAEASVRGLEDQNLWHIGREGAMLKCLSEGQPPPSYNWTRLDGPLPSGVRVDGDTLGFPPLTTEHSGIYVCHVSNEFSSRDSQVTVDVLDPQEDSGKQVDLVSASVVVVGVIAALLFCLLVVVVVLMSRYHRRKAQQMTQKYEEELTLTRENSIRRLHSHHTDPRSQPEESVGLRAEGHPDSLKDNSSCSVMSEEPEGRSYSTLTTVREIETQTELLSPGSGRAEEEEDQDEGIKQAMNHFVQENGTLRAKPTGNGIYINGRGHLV
Chain of UniProt Q07011 (whole entry, looked up): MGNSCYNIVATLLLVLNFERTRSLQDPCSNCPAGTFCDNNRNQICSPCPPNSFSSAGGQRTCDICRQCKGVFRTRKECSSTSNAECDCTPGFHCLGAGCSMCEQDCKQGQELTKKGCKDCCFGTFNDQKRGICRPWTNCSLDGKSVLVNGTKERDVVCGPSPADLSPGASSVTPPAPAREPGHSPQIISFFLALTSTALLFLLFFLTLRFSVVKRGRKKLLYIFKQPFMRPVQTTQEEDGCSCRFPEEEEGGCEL
Toll-like receptor 1/2: Toll-like receptor 1/2 (Homo sapiens, UniProt O60603+Q15399)
Chain of UniProt O60603 (whole entry, looked up): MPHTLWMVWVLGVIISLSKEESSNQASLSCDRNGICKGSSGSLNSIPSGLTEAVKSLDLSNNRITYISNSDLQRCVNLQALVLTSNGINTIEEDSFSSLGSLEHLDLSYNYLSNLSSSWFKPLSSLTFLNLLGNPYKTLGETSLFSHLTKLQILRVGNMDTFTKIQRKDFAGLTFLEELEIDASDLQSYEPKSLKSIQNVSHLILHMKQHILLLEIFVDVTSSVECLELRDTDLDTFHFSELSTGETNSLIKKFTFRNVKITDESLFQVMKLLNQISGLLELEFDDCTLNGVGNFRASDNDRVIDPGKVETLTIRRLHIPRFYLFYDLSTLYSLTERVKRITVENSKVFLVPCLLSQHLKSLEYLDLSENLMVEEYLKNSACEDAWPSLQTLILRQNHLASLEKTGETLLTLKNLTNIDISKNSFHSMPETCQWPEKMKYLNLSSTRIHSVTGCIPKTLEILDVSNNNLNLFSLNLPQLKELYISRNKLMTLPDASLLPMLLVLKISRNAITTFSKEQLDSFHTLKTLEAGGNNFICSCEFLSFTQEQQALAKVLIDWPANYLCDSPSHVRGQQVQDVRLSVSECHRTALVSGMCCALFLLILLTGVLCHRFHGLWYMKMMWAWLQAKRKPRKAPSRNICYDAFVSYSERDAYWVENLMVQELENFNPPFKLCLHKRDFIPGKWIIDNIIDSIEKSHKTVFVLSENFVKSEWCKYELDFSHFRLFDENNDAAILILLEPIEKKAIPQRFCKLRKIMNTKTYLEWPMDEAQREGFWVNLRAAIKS
Chain of UniProt Q15399 (whole entry, looked up): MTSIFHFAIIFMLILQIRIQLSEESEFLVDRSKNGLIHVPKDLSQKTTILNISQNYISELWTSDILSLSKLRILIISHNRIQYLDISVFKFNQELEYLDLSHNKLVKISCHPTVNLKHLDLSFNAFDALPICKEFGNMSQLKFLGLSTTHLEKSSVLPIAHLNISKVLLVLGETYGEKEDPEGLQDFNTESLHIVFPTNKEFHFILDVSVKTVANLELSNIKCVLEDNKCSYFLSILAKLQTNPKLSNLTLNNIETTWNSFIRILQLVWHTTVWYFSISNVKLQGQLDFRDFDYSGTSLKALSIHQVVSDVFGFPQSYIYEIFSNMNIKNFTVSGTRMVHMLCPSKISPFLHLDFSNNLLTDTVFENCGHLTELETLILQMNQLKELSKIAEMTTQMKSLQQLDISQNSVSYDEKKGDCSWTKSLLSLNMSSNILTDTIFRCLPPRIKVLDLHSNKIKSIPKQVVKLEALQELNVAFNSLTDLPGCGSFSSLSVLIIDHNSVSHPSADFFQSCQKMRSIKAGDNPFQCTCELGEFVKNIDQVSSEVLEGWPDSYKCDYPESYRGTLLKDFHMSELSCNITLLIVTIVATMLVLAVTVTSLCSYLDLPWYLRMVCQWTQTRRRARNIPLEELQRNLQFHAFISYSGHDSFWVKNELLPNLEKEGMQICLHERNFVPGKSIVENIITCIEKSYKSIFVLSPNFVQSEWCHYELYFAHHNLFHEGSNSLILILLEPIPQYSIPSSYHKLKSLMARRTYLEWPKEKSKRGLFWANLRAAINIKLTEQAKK
Chain of UniProt P34995 (whole entry, unmodified, looked up): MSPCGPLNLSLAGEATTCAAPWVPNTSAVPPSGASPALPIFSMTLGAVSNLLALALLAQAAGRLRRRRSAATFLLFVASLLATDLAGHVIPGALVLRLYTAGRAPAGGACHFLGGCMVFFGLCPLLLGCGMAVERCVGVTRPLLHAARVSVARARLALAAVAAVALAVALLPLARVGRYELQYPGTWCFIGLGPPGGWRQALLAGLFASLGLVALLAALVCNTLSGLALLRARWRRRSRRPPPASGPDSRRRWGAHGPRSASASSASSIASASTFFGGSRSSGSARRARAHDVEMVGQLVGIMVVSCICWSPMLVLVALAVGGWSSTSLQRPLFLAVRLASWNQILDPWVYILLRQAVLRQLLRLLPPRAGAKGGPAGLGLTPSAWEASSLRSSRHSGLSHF
Chain of UniProt Q96LB2 (whole entry, looked up): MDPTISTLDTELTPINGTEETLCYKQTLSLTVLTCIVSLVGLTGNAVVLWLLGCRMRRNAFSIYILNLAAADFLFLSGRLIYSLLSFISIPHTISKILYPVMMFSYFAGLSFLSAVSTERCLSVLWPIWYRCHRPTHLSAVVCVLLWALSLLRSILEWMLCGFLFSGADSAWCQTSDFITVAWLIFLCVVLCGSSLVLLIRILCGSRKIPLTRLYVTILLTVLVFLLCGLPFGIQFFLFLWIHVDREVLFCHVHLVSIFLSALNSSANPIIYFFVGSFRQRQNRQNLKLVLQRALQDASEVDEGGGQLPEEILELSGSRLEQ
Chain of UniProt O75762 (whole entry, looked up): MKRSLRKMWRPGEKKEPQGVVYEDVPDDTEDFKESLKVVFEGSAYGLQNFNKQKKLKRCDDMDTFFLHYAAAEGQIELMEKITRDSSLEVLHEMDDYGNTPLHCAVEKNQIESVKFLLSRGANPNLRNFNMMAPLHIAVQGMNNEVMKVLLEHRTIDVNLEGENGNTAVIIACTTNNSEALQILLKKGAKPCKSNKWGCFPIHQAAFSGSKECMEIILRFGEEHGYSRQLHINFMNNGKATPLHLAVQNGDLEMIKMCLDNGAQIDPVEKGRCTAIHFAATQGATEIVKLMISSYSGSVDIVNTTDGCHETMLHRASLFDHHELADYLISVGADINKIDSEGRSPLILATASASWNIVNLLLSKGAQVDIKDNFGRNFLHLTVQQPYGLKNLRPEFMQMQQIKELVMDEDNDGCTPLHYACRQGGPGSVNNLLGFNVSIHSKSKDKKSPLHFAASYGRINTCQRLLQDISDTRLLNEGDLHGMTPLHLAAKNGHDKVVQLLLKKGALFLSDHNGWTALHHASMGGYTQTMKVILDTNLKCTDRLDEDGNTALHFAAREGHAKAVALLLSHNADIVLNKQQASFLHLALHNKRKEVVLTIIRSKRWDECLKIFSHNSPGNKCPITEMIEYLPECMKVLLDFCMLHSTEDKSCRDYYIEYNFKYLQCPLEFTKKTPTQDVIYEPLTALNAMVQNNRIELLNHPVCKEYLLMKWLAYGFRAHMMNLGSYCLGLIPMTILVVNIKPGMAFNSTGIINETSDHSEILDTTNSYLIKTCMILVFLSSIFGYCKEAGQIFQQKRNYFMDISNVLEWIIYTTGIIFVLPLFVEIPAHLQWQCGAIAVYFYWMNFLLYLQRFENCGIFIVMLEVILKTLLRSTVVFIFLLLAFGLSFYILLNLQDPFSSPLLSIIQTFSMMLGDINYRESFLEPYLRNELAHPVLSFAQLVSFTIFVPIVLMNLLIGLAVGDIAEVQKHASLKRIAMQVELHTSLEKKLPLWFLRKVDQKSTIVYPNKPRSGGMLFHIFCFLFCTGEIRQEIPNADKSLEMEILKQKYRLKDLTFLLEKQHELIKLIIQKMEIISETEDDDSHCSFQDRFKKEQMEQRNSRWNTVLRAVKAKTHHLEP

CCc1nccnc1CC  EC50 (OR5K1 A2T/I280V/T15M/V39I/Y193C; cAMP, agonist; HEK293 transfected with OR5K1): 492 ± 15.5 µM
Cn1cc2c(C(=O)O)ccc(NS(=O)(=O)c3ccc(OCC4CCC4)c(Cl)c3)c2n1  EC50 (ADRA1A; antagonist): > 10 µM
CCc1ncc(C)nc1CC  EC50 (OR5K1 A2T/I280V/T15M/V39I/Y193C; cAMP, agonist; HEK293 transfected with OR5K1): 92.9 ± 14.6 µM
CCCC[C@@H]1NC(=O)[C@H](Cc2ccc(O)cc2)NC(=O)[C@@H]2CCCN2C(=O)[C@H](CC(=O)O)NC(=O)[C@H](C)NC(=O)[C@H](Cc2ccccc2)NC(=O)[C@@H]2CSCCC(=O)N3CN(CN(C3)C(=O)CCSC[C@@H](C(=O)N[C@@H](CNC(=O)CCc3cn(CCOCCOCCOCCOCCOCCOCCOCCOCCOCCOCCNC(=O)N[C@H]4CSCCC(=O)N5CN6CN(C5)C(=O)CCSC[C@H](NC(=O)[C@@H](CC(=O)O)NC(=O)[C@H](Cc5cccc7ccccc57)NC(=O)[C@@H]5CCCN5C4=O)C(=O)N[C@@H](CCSC)C(=O)N[C@@H](CCCCNC(=N)N)C(=O)N[C@@H](CC(=O)O)C(=O)N[C@@H](Cc4c[nH]c5ccccc45)C(=O)N[C@@H](CO)C(=O)N[C@@H]([C@@H](C)O)C(=O)N4CCC[C@H]4C(=O)N4C[C@H](O)C[C@H]4C(=O)N[C@@H](Cc4c[nH]c5ccccc45)C(=O)N[C@H](C(N)=O)CSCCC6=O)nn3)C(N)=O)NC1=O)C(=O)CCSC[C@H](NC(=O)[C@H](C)NC(C)=O)C(=O)N[C@@H]([C@@H](C)CC)C(=O)N[C@@H](CCC(=O)O)C(=O)N[C@@H](CCC(=O)O)C(=O)NCC(=O)N[C@@H](CCC(N)=O)C(=O)N[C@@H](Cc1ccc(O)cc1)C(=O)N2  EC50 (Tumor necrosis factor receptor superfamily member 9/Nectin-4; reporter gene, agonist; HT-1376 coculture with reporter cells): 0.00312 µM
CC(=O)c1cc([N+](=O)[O-])c(Sc2cccc(Cl)c2Cl)s1  EC50 (enterokinase; enzyme activity, inhibitor): > 50 µM
CNc1ccc([N+](=O)[O-])cc1-n1cnc(-c2ccc(C(=O)O)cc2)c1  EC50 (Toll-like receptor 1/2; reporter gene, agonist; HEK-Blue hTLR2; 24 h): > 100 µM
Nc1ccc(CNc2ccncc2)c(F)c1  EC50 (ADRA1A; agonist, FLIPR reporter; reporter cell line): > 10 µM
O=C(Nc1ccn(Cc2ccc(O)cc2C(F)(F)F)n1)c1c(F)cccc1F  EC50 (TRPA1 (Homo sapiens, UniProt O75762); ion channel activity, agonist; cells overexpressing TRPA1; human receptor): > 10 µM
CCCC[C@@H]1NC(=O)[C@H](Cc2ccc(O)cc2)NC(=O)[C@@H]2CCCN2C(=O)[C@H](CC(=O)O)NC(=O)[C@H](C)NC(=O)[C@H](Cc2ccccc2)NC(=O)[C@@H]2CSCCC(=O)N3CN(CN(C3)C(=O)CCSC[C@@H](C(=O)N[C@@H](CNC(=O)CCc3cn(CCOCCOCCOCCOCCOCCOCCOCCOCCOCCOCCOCCOCCC(=O)NCCC(=O)N(C)CC(=O)N(C)CC(=O)N(C)CC(=O)N(C)CC(=O)N(C)CC(=O)N(C)CC(=O)N(C)CC(=O)N(C)CC(=O)N(C)CC(=O)N(C)CC(=O)NCCCC[C@@H]4NC(=O)[C@H](Cc5cccc6ccccc56)NC(=O)[C@@H]5CCCN5C(=O)[C@@H](NC(C)=O)CSCCC(=O)N5CN6CN(C5)C(=O)CCSC[C@H](NC4=O)C(=O)N[C@@H](CCSC)C(=O)N[C@@H](CCCCNC(=N)N)C(=O)N[C@@H](CC(=O)O)C(=O)N[C@@H](Cc4c[nH]c5ccccc45)C(=O)N[C@@H](CO)C(=O)N[C@@H]([C@@H](C)O)C(=O)N4CCC[C@H]4C(=O)N4C[C@H](O)C[C@H]4C(=O)N[C@@H](Cc4c[nH]c5ccccc45)C(=O)N[C@H](C(N)=O)CSCCC6=O)nn3)C(N)=O)NC1=O)C(=O)CCSC[C@H](NC(C)=O)C(=O)N[C@@H](CC(C)(C)C)C(=O)N1CCC[C@H]1C(=O)N[C@@H](CCC(=O)O)C(=O)N[C@H](C)C(=O)N1CCC[C@H]1C(=O)N[C@@H](Cc1ccc(O)cc1)C(=O)N2  EC50 (Tumor necrosis factor receptor superfamily member 9/Nectin-4; reporter gene, agonist; HT-1376 coculture with reporter cells): 0.00108 µM
CCOCc1nc(O)c(-c2nnc(Cc3ccc(Cl)cn3)o2)c(O)c1-c1c(OC)cccc1OC  EC50 (Apelin receptor (APLNR, Homo sapiens, UniProt P35414); Gα12/P115 activation, agonist, BRET biosensor; HEK293): 0.00391 ± 0.00068 µM
CNc1ccc([N+](=O)[O-])cc1-n1cnc(-c2ccc(C)cc2)c1  EC50 (Toll-like receptor 1/2; reporter gene, agonist; HEK-Blue hTLR2; 24 h): > 100 µM
CCCC[C@@H]1NC(=O)[C@H](Cc2ccc(O)cc2)NC(=O)[C@@H]2CCCN2C(=O)[C@H](CC(=O)O)NC(=O)[C@H](C)NC(=O)[C@H](Cc2ccccc2)NC(=O)[C@@H]2CSCCC(=O)N3CN(CN(C3)C(=O)CCSC[C@@H](C(=O)N[C@@H](CNC(=O)CCOCCOCCOCCOCCOCCOCCOCCOCCOCCOCCOCCOCCn3cc(CCC(=O)NCCC(=O)N(C)CC(=O)N(C)CC(=O)N(C)CC(=O)N(C)CC(=O)N(C)CC(=O)N(C)CC(=O)N(C)CC(=O)N(C)CC(=O)N(C)CC(=O)N(C)CC(=O)N[C@H]4CSCCC(=O)N5CN6CN(C5)C(=O)CCSC[C@H](NC(=O)[C@@H](CC(=O)O)NC(=O)[C@H](Cc5cccc7ccccc57)NC(=O)[C@@H]5CCCN5C4=O)C(=O)N[C@@H](CCSC)C(=O)N[C@@H](CCCCNC(=N)N)C(=O)N[C@@H](CC(=O)O)C(=O)N[C@@H](Cc4c[nH]c5ccccc45)C(=O)N[C@@H](CO)C(=O)N[C@@H]([C@@H](C)O)C(=O)N4CCC[C@H]4C(=O)N4C[C@H](O)C[C@H]4C(=O)N[C@@H](Cc4c[nH]c5ccccc45)C(=O)N[C@H](C(N)=O)CSCCC6=O)nn3)C(N)=O)NC1=O)C(=O)CCSC[C@H](NC(C)=O)C(=O)N[C@@H](CC(C)(C)C)C(=O)N1CCC[C@H]1C(=O)N[C@@H](CCC(=O)O)C(=O)N[C@H](C)C(=O)N1CCC[C@H]1C(=O)N[C@@H](Cc1ccc(O)cc1)C(=O)N2  EC50 (Tumor necrosis factor receptor superfamily member 9/Nectin-4; reporter gene, agonist; HT-1376 reporter coculture): 0.0011 µM
CC(C)(C)c1sc2ncnc(Oc3c(F)cccc3OC(F)(F)F)c2c1-c1ccc(Cl)cc1  EC50 (MRGPRX1 (Homo sapiens, UniProt Q96LB2); positive allosteric modulator, FLIPR; HEK293 transfected with MRGPRX1; added: EC20 agonist): 0.03 µM
COc1nccnc1C(C)C  EC50 (OR5K1 A2T/I280V/T15M/V39I/Y193C; cAMP, agonist; HEK293 transfected with OR5K1): 498 ± 110 µM
CCCCC[C@H](O)/C=C/[C@H]1[C@H](O)CC(=O)[C@@H]1C/C=C\CCCC(=O)O  EC50 (PTGER1 (Homo sapiens, UniProt P34995, S341A); IP1 accumulation, agonist; AD293; EP1 S341A mutant): 0.00146 µM
CCCC[C@@H]1NC(=O)[C@H](Cc2ccc(O)cc2)NC(=O)[C@@H]2CCCN2C(=O)[C@H](CC(=O)O)NC(=O)[C@H](C)NC(=O)[C@H](Cc2ccccc2)NC(=O)[C@@H]2CSCCC(=O)N3CN(CN(C3)C(=O)CCSC[C@@H](C(=O)N[C@@H](C)C(N)=O)NC1=O)C(=O)CCSC[C@H](NC(C)=O)C(=O)N[C@@H](CC(C)(C)C)C(=O)N1CCC[C@H]1C(=O)N[C@@H](CCC(=O)O)C(=O)N[C@H](CCCCNC(=O)CCc1cn(CCOCCOCCOCCOCCOCCOCCOCCOCCOCCOCCNC(=O)CCOCCN(CCOCCC(=O)NCCOCCOCCOCCOCCOCCOCCOCCOCCOCCOCCn3cc(CCC(=O)NCCCC[C@H]4NC(=O)[C@H](CCC(=O)O)NC(=O)[C@@H]5CCCN5C(=O)[C@H](CC(C)(C)C)NC(=O)[C@@H](NC(C)=O)CSCCC(=O)N5CN6CN(C5)C(=O)CCSC[C@H](NC(=O)[C@H](Cc5ccc(O)cc5)NC(=O)[C@@H]5CCCN5C4=O)C(=O)N[C@@H](Cc4ccccc4)C(=O)N[C@@H](C)C(=O)N[C@@H](CC(=O)O)C(=O)N4CCC[C@H]4C(=O)N[C@@H](Cc4ccc(O)cc4)C(=O)N[C@@H](CCCC)C(=O)N[C@H](C(=O)N[C@@H](C)C(N)=O)CSCCC6=O)nn3)CCOCCC(=O)NCCOCCOCCOCCOCCOCCOCCOCCOCCOCCOCCn3cc(CCC(=O)N[C@H]4CSCCC(=O)N5CN6CN(C5)C(=O)CCSC[C@H](NC(=O)[C@@H](CC(=O)O)NC(=O)[C@H](Cc5cccc7ccccc57)NC(=O)[C@@H]5CCCN5C4=O)C(=O)N[C@@H](CCSC)C(=O)N[C@@H](CCCCNC(=N)N)C(=O)N[C@@H](CC(=O)O)C(=O)N[C@@H](Cc4c[nH]c5ccccc45)C(=O)N[C@@H](CO)C(=O)N[C@@H]([C@@H](C)O)C(=O)N4CCC[C@H]4C(=O)N4C[C@H](O)C[C@H]4C(=O)N[C@@H](Cc4c[nH]c5ccccc45)C(=O)N[C@H](C(N)=O)CSCCC6=O)nn3)nn1)C(=O)N1CCC[C@H]1C(=O)N[C@@H](Cc1ccc(O)cc1)C(=O)N2  EC50 (Tumor necrosis factor receptor superfamily member 9/Nectin-4; reporter gene, agonist; HT-1376 reporter coculture): 0.00014 µM

Repeated from above:
Cn1cc2c(C(=O)O)ccc(NS(=O)(=O)c3ccc(OCC4CCC4)c(Cl)c3)c2n1  EC50 (ADRA1A; antagonist): > 10 µM
CCc1ncc(C)nc1CC  EC50 (OR5K1 A2T/I280V/T15M/V39I/Y193C; cAMP, agonist; HEK293 transfected with OR5K1): 92.9 ± 14.6 µM
